Assay results gathered from unrelated publications.
Each line is one published result; not all experiments were run side by side. Values joined by “and” are separate records of one study, mostly repeats; a detail may differ. Numbers after ± are the reported error.

For CN[C@@H]1[C@H](O)[C@H](NC)[C@H]2O[C@]3(O)[C@H](O[C@@H]2[C@H]1O)O[C@H](C)C[C@H]3NC(=O)Cc1cc(Cl)ccn1, the MIC was 50 µg/mL (Mycolicibacterium fortuitum; microbial growth; ATCC6841).
With Cc1ccc2nc(C)c(C(=O)C(=O)N(C)C)n2c1 the inhibition zone was 0 mm (Bacillus subtilis; microbial growth; ATCC6633; 2 mM, 20 h).
With CC1(C)[C@H](NC(=O)/C(=N\OCc2c(Cl)cccc2Cl)c2nsc(N)n2)C(=O)N1OS(=O)(=O)O the MIC was 4 µg/mL (Salmonella enterica Typhi; agar dilution; susceptible).
The EC50 of CC1(C)CCC2(C(=O)NCc3ccccc3)CCC3(C)C(=CCC4C5(C)CCC(OC(=O)C6CC(OC(=O)C7CC(O)C(O)C(O)C7)CN6C(=O)c6ccc(O)c(O)c6)C(C)(C)C5CCC43C)C2C1 (stereo not drawn) is reported as 0.4 ± 0.27 µM (Influenza A virus; viral replication; MDCK, A/WSN/1933 (H1N1); 48 h).
The inhibition zone of Cc1ccc2nc(C)c(C(=O)C(=O)NCc3ccccc3)n2c1 is reported as 0 mm (Bacillus subtilis; microbial growth; ATCC6633; 2 mM, 20 h).
Under activity, Nc1c2c(nc3sc4c(c13)CCCCC4)CCCC2 is recorded as “inactive” (Mycobacterium bovis BCG; concentration not given).
With CC(C)CC(C(=O)N1CC2(CC1C#N)C(=O)Nc1ccccc12)N(C)C(=O)c1cc2c(F)cc(F)c(F)c2[nH]1 (stereo not drawn) the inhibition was 2.1% (human coronavirus 229E; viral replication; MRC-5; 0.00031 µM).
Cc1ccc2nc(C)c(CC(=O)NCc3ccc(N(C)C)cc3)n2c1 gave an inhibition zone of 0 mm (Bacillus subtilis; microbial growth; ATCC6633; 2 mM, 20 h).
For Cc1cc(Oc2nc(N3CC[C@@H](c4ccncc4)C3)ncc2F)[nH]n1, the normalised growth was 64.5% and 62.1% (Mycobacterium tuberculosis; THP-1, H37Rv non-replicating; 9.488 µM, day 4 plus 1).
The EC50 of O=C(CCN(CCC(=O)N[C@@H](Cc1c[nH]c2ccccc12)C(=O)O)C(=O)CCN(CCC(=O)N(CCC(=O)N[C@@H](Cc1c[nH]c2ccccc12)C(=O)O)CCC(=O)N[C@@H](Cc1c[nH]c2ccccc12)C(=O)O)C(=O)c1cc(C(=O)N(CCC(=O)N(CCC(=O)N[C@@H](Cc2c[nH]c3ccccc23)C(=O)O)CCC(=O)N[C@@H](Cc2c[nH]c3ccccc23)C(=O)O)CCC(=O)N(CCC(=O)N[C@@H](Cc2c[nH]c3ccccc23)C(=O)O)CCC(=O)N[C@@H](Cc2c[nH]c3ccccc23)C(=O)O)cc(C(=O)N(CCC(=O)N(CCC(=O)N[C@@H](Cc2c[nH]c3ccccc23)C(=O)O)CCC(=O)N[C@@H](Cc2c[nH]c3ccccc23)C(=O)O)CCC(=O)N(CCC(=O)N[C@@H](Cc2c[nH]c3ccccc23)C(=O)O)CCC(=O)N[C@@H](Cc2c[nH]c3ccccc23)C(=O)O)c1)N[C@@H](Cc1c[nH]c2ccccc12)C(=O)O is reported as 45 ± 0.3 µM (human coronavirus 229E; viral replication).
For CC1(C)[C@H](NC(=O)/C(=N\OCCN)c2csc(N)n2)C(=O)N1OS(=O)(=O)O, the MIC was 2 µg/mL (Salmonella enterica Typhi; agar dilution; susceptible).
The EC50 of CCN(CC)C(=O)C12CCC(C)(C)CC1C1=CCC3C4(C)CCC(OC5OC(CO)C(OC6OC(C)C(O)C(O)C6O)C(O)C5OC5OC(C)C(O)C(O)C5O)C(C)(C)C4CCC3(C)C1(C)CC2 (stereo not drawn) is reported as over 50 µM (Influenza A virus; viral replication; MDCK, A/WSN/1933 (H1N1); 48 h).
The inhibition zone of Cc1ccc(-c2nc3ccc(C)cn3c2C(=O)C(=O)NCc2ccc(N(C)C)cc2)cc1 is reported as 0 mm (Bacillus subtilis; microbial growth; ATCC6633; 2 mM, 20 h).
With CC1OC(OC2C(CO)OC(OC3CCC4(C)C(CCC5(C)C4CC=C4C6CC(C)(C)CCC6(C(=O)NCc6ccccc6)CCC45C)C3(C)C)C(OC3OC(C)C(O)C(O)C3O)C2O)C(O)C(O)C1O (stereo not drawn) the EC50 was 35.6 ± 1.91 µM (Influenza A virus; viral replication; MDCK, A/WSN/1933 (H1N1); 48 h).
For CCc1ccn2c(C(=O)N(C)C)c(C)nc2c1, the inhibition zone was 0 mm (Bacillus subtilis; microbial growth; ATCC6633; 2 mM, 20 h).
For Cc1ccc(N2CC3CC(C2)N3C)cc1C(=O)NC1(c2ccc3c4c(cccc24)C(=O)N3C)CC1, the IC50 was 3.6 µM (Human coronavirus 229E; viral replication; Huh-7).
For C#CCNC(=O)C[C@H](Cc1ccc(F)cc1)NC(=O)[C@@H](Cc1ccc(Cl)cc1Cl)NC(=O)[C@H](N)Cc1ccccc1C#N, the EC50 was 2.5 µM (human coronavirus 229E; cytopathic effect; Huh-7 cells).
CN[C@@H]1[C@H](O)[C@H](NC)[C@H]2O[C@]3(O)[C@H](O[C@@H]2[C@H]1O)O[C@H](C)C[C@H]3NC(=O)Cc1ccc(Cl)cn1 has an MIC of over 200 µg/mL (Burkholderia cepacia; microbial growth, broth dilution; ATCC25416).
The inhibition zone of CCc1ccn2c(C(=O)NC(C)c3ccccc3)c(C)nc2c1 (stereo not drawn) is reported as 0 mm (Bacillus subtilis; microbial growth; ATCC6633; 2 mM).
The MIC of C#CCO/N=C(\C(=O)N[C@@H]1C(=O)N(OS(=O)(=O)O)C1(C)C)c1nsc(N)n1 is reported as 8 µg/mL (Salmonella enterica Typhi; agar dilution; susceptible).
For Cc1ccc(CNC(=O)Cc2c(C)nc3ccc(C)cn23)cc1, the inhibition zone was 0 mm (Micrococcus luteus; microbial growth; ATCC10240; 2 mM, 20 h).
For CC1(C)CCC2(C(=O)NCc3ccccc3)CCC3(C)C(=CCC4C5(C)CCC(OC(=O)C6CC(OC(=O)c7ccc(F)c(F)c7)CN6C(=O)c6ccc(F)c(F)c6)C(C)(C)C5CCC43C)C2C1 (stereo not drawn), the EC50 was 4.47 ± 0.67 µM (Influenza A virus; viral replication; MDCK, A/WSN/1933 (H1N1); 48 h).
CC1(C)[C@H](NC(=O)/C(=N\OCc2c(Cl)cccc2Cl)c2csc(N)n2)C(=O)N1OS(=O)(=O)O gave an MIC of 1 µg/mL (Salmonella enterica Typhi; agar dilution; susceptible).
CCCC/C=C/C(=O)N[C@@H](Cc1csc2ccccc12)C(=O)N[C@H]1COC(=O)[C@@H]2C[C@@H](C)CN2C(=O)[C@H](C)NC(=O)[C@@H]2CCCCN2C(=O)[C@@H]2CCCN2C1=O gave a virus titre of 34100 TCID50/mL and 50000 TCID50/mL (human coronavirus 229E; Huh-7; concentration not given).
Cc1ccc(NS(=O)(=O)c2c(C(=O)N3CCCCCC3)c(C)n(C)c2C)c(Cl)c1 gave an infection of 101% and 100% (Fowlpox virus; viral infection; CEF; 100 µM; relative to: untreated).
With Cc1ccc(-c2nc3ccc(C)cn3c2CC(=O)NCc2ccc(N(C)C)cc2)cc1 the MIC was over 50 µM (Mycobacteroides chelonae; microbial growth; 72 h).
For Oc1ccc(Br)cc1-c1nc2cc(C(F)(F)F)ccc2s1, “genomic RNA level” read 0.86 and 0.597 and 0.986 (human coronavirus 229E; Huh-7; concentration not given, unit not given; relative to: DMSO).
